Values quoted from earlier work as cited in several papers.
Protocols differ between the studies behind these lines. ± gives the spread as reported.

| SMILES | target | assay | test system | setting | how to read | quantity | result |
| --- | --- | --- | --- | --- | --- | --- | --- |
| CCCC(C(=O)c1ccc2c(c1)OCO2)N1CCCC1 (stereo not drawn) | dopamine transporter | dopamine uptake, inhibitor |  |  | reference: cocaine | potency ratio | > 50 fold |
| Cc1ncc2n1-c1ccc(Cl)cc1C(c1ccccc1F)=NC2 | UGT1A4 |  |  |  |  | Vmax | 445 pmol/min/mg protein |
| CNC1=Nc2ccc(Cl)cc2C(c2ccccc2)=[N+]([O-])C1 | GABAA receptor α1β3γ2 | electrophysiology |  | 3 µM | reference: GABA current | GABA current potentiation | 105% |
| CN1C(=O)CN=C(c2ccccc2)c2cc(Cl)ccc21 | GABAA receptor, benzodiazepine site | binding | brain | historical reference data, added: flunitrazepam |  | Hill coefficient | 0.8 |
| CCCC(C(=O)c1ccc2c(c1)OCO2)N1CCCC1.Cl (racemic) | norepinephrine transporter, rat | inhibitor | rat brain tissue |  | reference: cocaine | relative potency | 10 fold |
| O=c1[nH]c(-c2ccc(-c3nnn[nH]3)cc2)ncc1O | influenza endonuclease | enzyme activity, inhibitor |  |  |  | IC50 | 150 nM |
| NCCc1ccc(Oc2ccc(O)cc2)c(I)c1 | mouse TAAR1 | agonist |  |  |  | EC50 | 112 nM |
| CNC(C)C(=O)c1cccc(Cl)c1 (stereo not drawn) | dopamine transporter | dopamine release, releaser |  |  |  | EC50 | 47 nM |
| O=c1[nH]cc(Cl)cc1O | influenza endonuclease | enzyme activity, inhibitor |  |  |  | IC50 | 25000 nM |
| CCCCCCCC[C@H]1O[C@H]1C/C=C/C=C/[C@H](O)CC(=O)NC1=C[C@](C)(CC)OC1=O | Na+-NQR wild type | enzyme activity, inhibitor | isolated enzyme |  |  | IC50 | 5 nM |
| C#Cc1ccc2c(c1)C(c1ccccc1F)=N[C@@H](C)c1c(C(=O)OCC)ncn1-2 | rat brain GABA-A receptors | binding |  |  |  | IC50 | 111 nM |
| O=c1[nH]c(-c2ccc(-c3nnn[nH]3)cc2)ccc1O | influenza endonuclease | enzyme activity, inhibitor |  |  |  | IC50 | 85 ± 8 nM |

For quick reference, copied from above:
| SMILES | target | assay | test system | setting | how to read | quantity | result |
| --- | --- | --- | --- | --- | --- | --- | --- |
| CN1C(=O)CN=C(c2ccccc2)c2cc(Cl)ccc21 | GABAA receptor, benzodiazepine site | binding | brain | historical reference data, added: flunitrazepam |  | Hill coefficient | 0.8 |
